{"data": "Experimental data pooled from the literature"}
{"Structure (SMILES)": "C=CC(=O)Nc1cccc(Cn2ncc3cnc(Nc4cnn(CCOC)c4)nc32)c1", "target or system": "TAOK2 human", "test": "binding, KINOMEscan", "setting": "100 nM", "how to read": "lower = stronger binding", "endpoint": "percent of control", "result": "82%"}
{"Structure (SMILES)": "COC1CN([C@H]2CC[C@H]([C@@]3(C)Oc4c(Cl)cc(C(=O)NCc5c(SC)cc(C)[nH]c5=O)c(C)c4O3)CC2)C1", "test": "RNA-seq, refers to: LYPD1 mouse homolog", "test system": "mouse, HT-1376 xenograft, whole blood", "setting": "dose not given", "how to read": "baseline: vehicle", "endpoint": "log2 fold change", "result": 4.57}
{"Structure (SMILES)": "C=CC(=O)N1[C@H](c2ccc3c(c2)OCO3)c2[nH]c3ccccc3c2C[C@@H]1C(=O)N1CCN(C)CC1", "target or system": "human cyclin E1 N112C-3xFLAG:CDK2", "test": "co-IP with TMT proteomics, refers to: NCL", "setting": "concentration not given, P19338", "how to read": "baseline: wild type DMSO", "endpoint": "relative co-enrichment", "result": "112%"}
{"Structure (SMILES)": "CNS(=O)(=O)Nc1nccc(Cc2c(C)c3ccc(Oc4ncccc4F)cc3oc2=O)c1F", "target or system": "CAL-148", "test": "cell viability", "setting": "7 days", "endpoint": "IC50", "result": "> 1 µM"}
{"Structure (SMILES)": "Cn1ncc2cc(-c3cncc(Cl)c3N3CCC4(CCNC4=O)CC3)ccc21", "target or system": "LS174T", "test": "gene expression, microarray, refers to: IGLL1 mRNA", "setting": "concentration not given, 4 h", "how to read": "baseline: untreated cells", "endpoint": "log2 fold change", "result": 1.01}
{"Structure (SMILES)": "CN1CCCNC(=O)c2cccc(c2)C(=O)NCCCN(C)CCCNc2cccc3c2C(=O)c2cccc(c2C3=O)NCCC1", "target or system": "SAS", "test": "RNA-Seq, refers to: TBK1 mRNA", "setting": "1 µM, 6 h", "how to read": "baseline: untreated cells", "endpoint": "log2 fold change", "result": -0.829}
{"Structure (SMILES)": "Cc1ncsc1-c1ccc(C(C)NC(=O)C2CC(O)CN2C(=O)C(NC(=O)CCCCCCCCCCN2CCCC(Nc3ncc(Cl)c(Nc4ccccc4S(=O)(=O)C(C)C)n3)C2)C(C)(C)C)cc1 (stereo not drawn)", "target or system": "22Rv1", "test": "RNA-seq, refers to: ST3GAL1 mRNA", "setting": "concentration not given", "how to read": "baseline: DMSO", "endpoint": "log2 fold change", "result": -2.03}
{"Structure (SMILES)": "C=C(NC(=O)c1csc(-c2nc3c(cc2O)-c2nc(cs2)C(=O)NC(C(C)O)C(=O)NC(=C(C)OC)c2nc(cs2)C(=O)NC2c4nc(cs4)C(=O)NC(COC(=O)c4c5c6c(cccc6n4O)COC(=O)C(OC4CC(C)(O)C(N(C)C)C(C)O4)C2OC5)c2nc-3cs2)n1)C(N)=O (stereo not drawn)", "target or system": "Streptococcus pneumoniae", "test system": "-4, immunocompromised mice, lung infection", "setting": "16 mg/kg/day, twice daily, 24 h post-dose", "endpoint": "lung bacterial load", "result": "6.52 log CFU/g"}
{"Structure (SMILES)": "Nc1ncc(-c2cc(-c3cnn(CC(F)(F)F)c3)ncc2F)nc1C(=O)NC1CNCC(F)C1 (stereo not drawn)", "target or system": "TBK1", "test": "KINOMEscan", "setting": "1 µM", "how to read": "baseline: DMSO control", "endpoint": "remaining binding", "result": "95%"}
{"Structure (SMILES)": "Fc1ccc(Nc2nc(NC3CCCCC3)c3cc(Br)ccc3n2)cc1F", "target or system": "β2AR/β1AR ICL1 chimera", "test": "β-arrestin2 recruitment, antagonist, BRET", "how to read": "baseline: isoprenaline maximal response", "endpoint": "maximal inhibition", "result": "0.8%"}
{"Structure (SMILES)": "Cc1ccc(S(=O)(=O)NN)cc1", "test": "hydrazine ligation kinetics, absorbance", "setting": "concentration not given, 50 s, added: 2-formylphenylboronic acid", "endpoint": "normalised absorbance", "result": 0.896}
{"Structure (SMILES)": "CCN(CC)CC(=O)Nc1cccc(-n2cc(-c3ccc4ccc(-c5cn(-c6cccc(NC(=O)CN(CC)CC)c6)nn5)cc4c3)nn2)c1", "target or system": "RCC4", "test": "PCR angiogenesis array, refers to: SPHK1", "setting": "5 x IC50, 6 h, normoxia", "how to read": "baseline: untreated", "endpoint": "fold regulation", "result": -1.44}
{"note": "A few entries again:"}
{"Structure (SMILES)": "CCN(CC)CC(=O)Nc1cccc(-n2cc(-c3ccc4ccc(-c5cn(-c6cccc(NC(=O)CN(CC)CC)c6)nn5)cc4c3)nn2)c1", "target or system": "RCC4", "test": "PCR angiogenesis array, refers to: SPHK1", "setting": "5 x IC50, 6 h, normoxia", "how to read": "baseline: untreated", "endpoint": "fold regulation", "result": -1.44}
